Measured values pooled from the literature.
Compare with care: the assays were run in different laboratories.

| SMILES | organism | test | test system | conditions | MIC |
| --- | --- | --- | --- | --- | --- |
| CC1(C)SC2C(NC(=O)C(NC(=O)C3=C(O)C(Cc4ccc([N+](=O)[O-])cc4)NC3=O)c3ccccc3)C(=O)N2C1C(=O)O (centres unmarked) | Escherichia coli | broth microdilution | isolate IU, CTX-M-14, TEM-1 | added: clavulanic acid 6 µg/mL | 200 µg/mL |
| N=C(N)NCCC[C@H](NC(=O)[C@H](Cc1c[nH]c2ccccc12)NC(=O)[C@H](CCCNC(=N)N)NC(=O)[C@H](Cc1c[nH]c2ccccc12)NC(=O)[C@H](Cc1c[nH]c2ccccc12)NC(=O)[C@H](Cc1c[nH]c2ccccc12)NC(=O)[C@H](CCCNC(=N)N)NC(=O)[C@H](Cc1c[nH]c2ccccc12)NC(=O)[C@H](CCCNC(=N)N)NC(=O)CN)C(N)=O | Candida albicans | broth microdilution | 58288, RPMI 1640-MOPS | 48 h, 30 °C | 8 µM |
| CN[C@H](CC(C)C)C(=O)N[C@H]1C(=O)N[C@@H](CC(N)=O)C(=O)N[C@H]2C(=O)N[C@H]3C(=O)N[C@H](C(=O)N[C@H](C(=O)O)c4cc(O)cc(O)c4-c4cc3ccc4O)[C@H](O)c3ccc(c(Cl)c3)Oc3cc2cc(c3O[C@@H]2O[C@H](CO)[C@@H](O)[C@H](O)[C@H]2O[C@H]2C[C@](C)(N)[C@H](O)[C@H](C)O2)Oc2ccc(cc2Cl)[C@H]1O | Enterococcus |  | VRE 700221 | 16 h | > 100 µM |
| CC(C)(C)Oc1ccc(CC2NC(=O)C(C(=O)NC(C(=O)NC3C(=O)N4C3SC(C)(C)C4C(=O)O)c3ccccc3)=C2O)cc1 (centres unmarked) | Escherichia coli | broth microdilution | Keio mutant JW0587-1 | 18 h, enterobactin-related gene | 25 µg/mL |
| CC[C@H](C)C[C@H](C)CCCCCCCCC(=O)N[C@H]1C[C@@H](O)[C@@H](NCCN)NC(=O)[C@@H]2[C@@H](O)CCN2C(=O)[C@H]([C@H](O)CCN)NC(=O)[C@H]([C@H](O)[C@@H](O)c2ccc(O)cc2)NC(=O)[C@@H]2C[C@@H](O)CN2C(=O)[C@H]([C@@H](C)O)NC1=O | Kluyveromyces marxianus | broth dilution | ATCC 204093 | 48 h, 37 °C | 0.25 µg/mL |
| CC(C)C1NC(=O)C(C(=O)NC(C(=O)NC2C(=O)N3C2SC(C)(C)C3C(=O)O)c2ccccc2)=C1O (centres unmarked) | Escherichia coli | broth microdilution | Keio mutant JW0587-1 | 18 h, enterobactin-related gene | 25 µg/mL |
| C[C@H](NC(=O)[C@H](CCCNC(=N)N)NC(=O)[C@H](Cc1c[nH]c2ccccc12)NC(=O)[C@H](CCCNC(=N)N)NC(=O)[C@H](Cc1c[nH]c2ccccc12)NC(=O)[C@H](Cc1c[nH]c2ccccc12)NC(=O)[C@H](Cc1c[nH]c2ccccc12)NC(=O)[C@H](CCCNC(=N)N)NC(=O)[C@H](Cc1c[nH]c2ccccc12)NC(=O)[C@H](CCCNC(=N)N)NC(=O)CN)C(N)=O | Candida albicans | broth microdilution | 56214, RPMI 1640-MOPS | 48 h, 30 °C | 8 µM |
| CC(C)(C)OCC1NC(=O)C(C(=O)NC(C(=O)NC2C(=O)N3C2SC(C)(C)C3C(=O)O)c2ccccc2)=C1O (centres unmarked) | Escherichia coli | broth microdilution | ATCC 35218, low-level TEM-1 | no clavulanic acid | > 200 µg/mL |
| CN[C@H](CC(C)C)C(=O)N[C@H]1C(=O)N[C@@H](CC(N)=O)C(=O)N[C@H]2C(=O)NC3C(=O)N[C@H](C(=O)N[C@H](C(=O)NCCC[N+](C)(C)C)c4cc(O)cc(O)c4-c4cc3ccc4O)[C@H](O)c3ccc(c(Cl)c3)Oc3cc2cc(c3OC2OC(CO)C(O)[C@H](O)[C@@H]2O[C@H]2CC(C)(NCc3ccc(-c4ccc(Cl)cc4)cc3)[C@H](O)[C@H](C)O2)Oc2ccc(cc2Cl)[C@H]1O (some centres unmarked) | Enterococcus faecalis |  | BM 4166 vanA | added: 100 µg/mL NaH2PO4 plus LTA | 1 µg/mL |
| CC(C)C[C@@H]1NC(=O)[C@H](Cc2ccccc2)NC(=O)[C@H](Cc2ccc(O)cc2)NC(=O)[C@H](CC(C)C)NC(=O)[C@H](CCC(=O)O)NC(=O)[C@H](Cc2ccccc2)NC(=O)[C@H](CCCNC(=N)N)NC(=O)[C@H](CCC(N)=O)NC(=O)[C@H](CC(C)C)NC(=O)[C@H](CC(=O)O)NC(=O)[C@@H]2CCCN2C(=O)[C@H](CCCCN)NC(=O)[C@H](C(C)C)NC(=O)[C@H](CC(N)=O)NC(=O)[C@H](Cc2ccc(O)cc2)NC(=O)[C@H]([C@@H](C)O)NC(=O)[C@@H](N)CSSC[C@@H](C(=O)O)NC(=O)[C@H]([C@@H](C)O)NC(=O)[C@H](C(C)C)NC(=O)[C@H]([C@@H](C)O)NC(=O)CNC1=O | Corynebacterium glutamicum | broth dilution | CGMCC strain | 24 h | > 40 µM |
| CC(C)C[C@H](NC(=O)[C@H](Cc1c[nH]c2ccccc12)NC(=O)[C@H](CC(C)C)NC(=O)[C@@H](NC(=O)[C@H](CC(C)C)NC(=O)[C@H](CCCNC(=N)N)NC(=O)[C@@H](N)CCCNC(=N)N)[C@@H](C)O)C(=O)N[C@H](C(=O)N[C@@H](CC(C)C)C(=O)N[C@@H](CCCNC(=N)N)C(=O)N[C@@H](CCCNC(=N)N)C(N)=O)[C@@H](C)O | Lactiplantibacillus plantarum |  | 7469, probiotic strain | 24 h, 37 °C, tested up to 128 µM | 32 µM |
| CC[C@H](C)[C@H](NC(=O)[C@H](CCCCN)NC(=O)[C@H](CCCCN)NC(=O)[C@H](Cc1ccccc1)NC(=O)[C@@H](NC(=O)[C@@H](NC(=O)[C@H](CCCNC(=N)N)NC(=O)[C@H](Cc1ccccc1)NC(=O)[C@@H](NC(=O)[C@H](CCCCN)NC(=O)[C@H](CCCCN)NC(=O)[C@@H](N)CCSC)[C@@H](C)CC)C(C)C)[C@@H](C)CC)C(=O)N[C@@H](CC(C)C)C(=O)N[C@@H](CCCCN)C(=O)N[C@@H](CCCNC(=N)N)C(=O)N[C@@H](CC(C)C)C(=O)N[C@H](C(=O)N[C@H](C(=O)O)C(C)C)[C@@H](C)CC | Staphylococcus aureus | broth microdilution | GU-1 MRSA | 20% fetal bovine serum | 8 µg/mL |
| CC1(C)SC2C(NC(=O)C(NC(=O)C3=C(O)CNC3=O)c3ccccc3)C(=O)N2C1C(=O)O (centres unmarked) | Escherichia coli | broth microdilution | isolate IU 356 A, KPC-3, VIM-1, TEM | added: clavulanic acid 6 µg/mL | > 200 µg/mL |
| N=C(N)NCCC[C@H](NC(=O)CN)C(=O)N[C@@H](Cc1c[nH]c2ccccc12)C(=O)N[C@@H](CCCNC(=N)N)C(=O)N[C@@H](Cc1c[nH]c2ccccc12)C(=O)N[C@@H](Cc1c[nH]c2ccccc12)C(=O)N[C@@H](Cc1c[nH]c2ccccc12)C(=O)N[C@@H](CCCNC(=N)N)C(=O)N[C@@H](Cc1c[nH]c2ccccc12)C(=O)N[C@@H](CCCNC(=N)N)C(=O)N[C@@H](Cc1c[nH]c2ccccc12)C(N)=O | Candida albicans | broth microdilution | 17546, RPMI 1640-MOPS | 48 h, 30 °C | 8 µM |
| CC[C@H](C)[C@H](NC(=O)[C@H](CC(N)=O)NC(=O)[C@H](CCCCN)NC(=O)[C@H](CC(=O)O)NC(=O)[C@H](Cc1ccc(O)cc1)NC(=O)[C@H](Cc1ccc(O)cc1)NC(=O)[C@H](Cc1ccc(O)cc1)NC(=O)[C@H](CCCNC(=N)N)NC(=O)[C@H](CC(C)C)NC(=O)CNC(=O)[C@H](CCCNC(=N)N)NC(=O)[C@@H](N)CO)C(=O)N[C@H](C(=O)N[C@@H](Cc1c[nH]cn1)C(=O)N[C@@H](CCCCN)C(=O)N[C@H](C(=O)N[C@@H](C)C(=O)NCC(=O)N[C@@H](CCCCN)C(=O)N[C@@H](CCCNC(=N)N)C(=O)N[C@@H](Cc1ccc(O)cc1)C(=O)N[C@H](C(=O)N[C@@H](Cc1ccc(O)cc1)C(=O)N[C@@H](CCCNC(=N)N)C(=O)N[C@@H](Cc1ccccc1)C(=O)N[C@H](C(=O)O)C(C)C)C(C)C)[C@@H](C)O)[C@@H](C)CC | Staphylococcus haemolyticus |  |  |  | 200 µg/mL |
| C[C@@H](O)[C@H]1C(=O)N2C(C(=O)O)=C(SCCN=CN)C[C@H]12 | Klebsiella pneumoniae |  | K3 | at emergence of KPC-144, added: ceftazidime-avibactam, avibactam fixed | 32 µg/mL |
| CC(C)[C@H](NC(=O)[C@H](CCCNC(=N)N)NC(=O)[C@H](Cc1c[nH]c2ccccc12)NC(=O)[C@H](CCCNC(=N)N)NC(=O)[C@H](Cc1c[nH]c2ccccc12)NC(=O)[C@H](Cc1c[nH]c2ccccc12)NC(=O)[C@H](Cc1c[nH]c2ccccc12)NC(=O)[C@H](CCCNC(=N)N)NC(=O)[C@H](Cc1c[nH]c2ccccc12)NC(=O)[C@H](CCCNC(=N)N)NC(=O)CN)C(N)=O | Candida albicans | broth microdilution | CGMCC 2.209, RPMI 1640-MOPS | 48 h, 30 °C, added: KCl 4.5 mM | 8 µM |
| Cc1ncc([N+](=O)[O-])n1CCO | Prevotella spp. |  |  |  | 0.25 to 2 µg/mL |
| CC1(C)SC2C(NC(=O)C(NC(=O)C3=C(O)C(Cc4ccco4)NC3=O)c3ccccc3)C(=O)N2C1C(=O)O (centres unmarked) | Escherichia coli | broth microdilution | isolate IU, CTX-M-14, TEM-1 | no clavulanic acid | > 200 µg/mL |
| CC(C)C[C@H](NC(=O)[C@H](CCCNC(=N)N)NC(=O)[C@H](Cc1c[nH]c2ccccc12)NC(=O)[C@H](CCCNC(=N)N)NC(=O)[C@H](Cc1c[nH]c2ccccc12)NC(=O)[C@H](Cc1c[nH]c2ccccc12)NC(=O)[C@H](Cc1c[nH]c2ccccc12)NC(=O)[C@H](CCCNC(=N)N)NC(=O)[C@H](Cc1c[nH]c2ccccc12)NC(=O)[C@@H](N)CCCNC(=N)N)C(N)=O | Candida albicans | broth microdilution | CGMCC 2.209, RPMI 1640-MOPS | 48 h, 30 °C, added: FeCl3 4 µM | 16 µM |
| CSCC[C@H](NC(=O)[C@H](CCCCN)NC(=O)[C@H](CCSC)NC(=O)[C@H](CCCCN)NC(=O)[C@H](CC(C)C)NC(=O)[C@H](CC(C)C)NC(=O)[C@H](CCCNC(=N)N)NC(=O)[C@H](CC(=O)O)NC(=O)[C@H](CCCCN)NC(=O)[C@H](Cc1c[nH]c2ccccc12)NC(=O)[C@H](Cc1ccc(O)cc1)NC(=O)[C@H](Cc1ccccc1)NC(=O)[C@H](CCCNC(=N)N)NC(=O)[C@@H]1CCCN1C(=O)[C@@H](NC(=O)[C@H](CCCNC(=N)N)NC(=O)[C@@H](N)CO)C(C)C)C(=O)N[C@@H](C)C(=O)O | Staphylococcus haemolyticus |  |  |  | 200 µg/mL |
| N=C(N)NCCC[C@H](NC(=O)[C@H](Cc1c[nH]c2ccccc12)NC(=O)[C@H](CCCNC(=N)N)NC(=O)[C@H](Cc1c[nH]c2ccccc12)NC(=O)[C@H](Cc1c[nH]c2ccccc12)NC(=O)[C@H](Cc1c[nH]c2ccccc12)NC(=O)[C@H](CCCNC(=N)N)NC(=O)[C@H](Cc1c[nH]c2ccccc12)NC(=O)[C@@H](N)CCCNC(=N)N)C(=O)N[C@@H](Cc1c[nH]c2ccccc12)C(N)=O | Candida albicans | broth microdilution | SP3931, RPMI 1640-MOPS | 48 h, 30 °C | 8 µM |
| CC1(C)SC2C(NC(=O)C(NC(=O)C3=C(O)C(Cc4ccsc4)NC3=O)c3ccccc3)C(=O)N2C1C(=O)O (centres unmarked) | Escherichia coli | broth microdilution | JW0790-2 fiu deletion mutant | ferric iron uptake gene | 25 µg/mL |

Excerpt of the above:
| SMILES | organism | test | test system | conditions | MIC |
| --- | --- | --- | --- | --- | --- |
| N=C(N)NCCC[C@H](NC(=O)[C@H](Cc1c[nH]c2ccccc12)NC(=O)[C@H](CCCNC(=N)N)NC(=O)[C@H](Cc1c[nH]c2ccccc12)NC(=O)[C@H](Cc1c[nH]c2ccccc12)NC(=O)[C@H](Cc1c[nH]c2ccccc12)NC(=O)[C@H](CCCNC(=N)N)NC(=O)[C@H](Cc1c[nH]c2ccccc12)NC(=O)[C@H](CCCNC(=N)N)NC(=O)CN)C(N)=O | Candida albicans | broth microdilution | 58288, RPMI 1640-MOPS | 48 h, 30 °C | 8 µM |
| CC1(C)SC2C(NC(=O)C(NC(=O)C3=C(O)C(Cc4ccc([N+](=O)[O-])cc4)NC3=O)c3ccccc3)C(=O)N2C1C(=O)O (centres unmarked) | Escherichia coli | broth microdilution | isolate IU, CTX-M-14, TEM-1 | added: clavulanic acid 6 µg/mL | 200 µg/mL |
